Published values pooled from the literature.
A part holds a random share of what one study measured. Substitutions count along the parent as printed.

Set 1
Target: CEP164, C-terminal peptide (human)
Method: DHFR complementation, deep sequencing
Matrix: yeast
Setting: single substitutions, model-inferred values
Relative to: wild type
Reading: higher = weaker binding
Starting sequence: PDZK1, PDZ domain 2 (human); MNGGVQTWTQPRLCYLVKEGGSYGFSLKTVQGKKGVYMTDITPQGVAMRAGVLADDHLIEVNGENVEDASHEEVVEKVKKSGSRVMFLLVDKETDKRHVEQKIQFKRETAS; partner HNRVKVYRF
Change	binding free energy change [kcal/mol]
A50F	0.637
H57T	-0.277
R49M	0.127
G82H	0.532
L58M	0.438
D40W	0.756
K79Y	0.642
L58A	0.272
V99N	-0.125
V78N	1.77
T7S	-0.0838
M86W	-0.0335
Q104F	-0.522
V30K	0.237
Y15D	0.134
V17E	-0.187
W8E	-0.0705
G20N	0.0373
L27I	-0.0835
H98G	-0.164
Q10P	0.115
S22R	-0.178
E76D	0.00713
V36G	1.06
D95F	-0.351

Set 2
Target: RNA binding protein fox-1 homolog 2, RRM domain, GST-SBP tag (RBFOX2, Homo sapiens, UniProt O43251-10, residues 100-194)
Method: RNA Bind-n-Seq
Form: RNA
Matrix: in vitro
Tested at: 365 nM
Setting: natural RNA segment, single round, ends assumed
Relative to: no-protein control
Reading: higher = stronger binding
Constant ends, left off below: GGGAGUUCUACAGUCCGACGAUC … UGGAAUUCUCGGGUGCCAA
Target sequence (chain): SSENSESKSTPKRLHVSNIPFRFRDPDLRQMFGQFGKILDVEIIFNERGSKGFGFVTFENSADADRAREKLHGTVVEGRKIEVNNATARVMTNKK
Oligonucleotide	RBNS enrichment (R)
CCCUCGCUUUGGCUAGAAACACAUUAACUGGUUUACUCAUUGGGAAUCCAGCAUAUUUAAGAGGUAAUCCUGUGUUUUCUGCAACAUUGAGGCAUUCAUACAGAGCUGCA	1.26
UCUGGGCCUCCCCACCUUUCCUGGGGUCUCCACAUUCCCACUAGUGGGUCUUAUGUGUGUCUGUGUCUUCUCCUUAAACACUCGCCCUGGAGUCUGUUCUCACACCUGUG	0.227
GGCCUUCCCCCACCACUGGGCAGAGGCUGGACAGCACGGACUUCUAGAGAGAGCCGCGUUGCCAGUUCCUCUCCCACUCGCUCGUCCUUAUCCACCACGCUAUUAUAGUU	0.363
AGGAACUUUCCUAAGAAACCGCUGAUAACCAGGACAAAACACAACCAAGGGUACACGCAGGCAUGCACGGGUUUCCUGCCCAGCGACGGCUUAAGCCAGCCCCCGACUGG	0.808
GCCUCUUCCUUGAAGAACUGCAGGCCCUGGCCUCCCCUGCCACCAGGCCACCUCCCCAGCAUUCCAGCCCCUCUGGUCGCUCCUGCCCACGGAGUCGUGGGGUGUGCUGG	0.455
CAAGAGAUAAGAUGUCUUUUUUUUACAGAAGUGUAAUAGUCACAGUGCCGCUUAUAGGCUGCACGCACCCCUUGCGGAUGUGCUAUCUGUGGGCAUUUCCUCCUCCUGUG	0.361
UAUAUAUAUGAUAUAUAUAUAUAUAUAAGUUCUUUUUUAGCUGUACCUACGUACUUAUAUCAGCACCAUGUAUGUAGGUGUGAUAGUACUUUCAAACAGCGCCUCCACCU	1.84
GCCUCGGGAAAGUCUGGUCCCACAUCUGCCCGCCCUUCCAGCCCUUCCCCAGCCCCUCCUCUUGUUUCUUCAUUCAUUCAACAAAAUUUGGCUGGAAUCUGGUUAUUUUG	0.885
CUGAGGACAGAUUCAUCCAACUUUAACCCCCAGGAACACUGGAAUGUAGGCUGCCAGAUGGGGGCUAUGAAUAUGCAGACUGCAGGAAGUGCAAUGGAUAUCUGUGAUGG	0.905
AGGAUGACUGUGUGAGCAAAGAGCGCAGCUCCUCCAGGUGACCACAUGUGGCCGCUGUCUGUGCCAGGAUAUGCUCGCAGCCAGGCUUGGGGGGCUGACACCCAGAGAAC	0.409
UUCUCAGCAGGGCUGAUGCUGCCCAAGAUAAGUAUAUCUGUCCACAUUAGUCAUUUUAGUCGAUUCCAACAGGUGAGACUUGCUUUCUACAAAGCAUCCCUUAGAAGUCC	0.283
UUUGGCUGCAGUAUUGGUGGUAGAAUAUACUUUGAUGGAUCAUCUCUACUUCUGUAUUUAUUUAUUUAUUACUAGACCUCAACCACAGCCUUCUCCCCCUCCACUCUCUG	0.381

Set 3
Target: Ras GTPase-activating protein-binding protein 1, full length (G3BP1, Homo sapiens, UniProt Q13283)
UniProt Q13283, sequence (whole entry, looked up): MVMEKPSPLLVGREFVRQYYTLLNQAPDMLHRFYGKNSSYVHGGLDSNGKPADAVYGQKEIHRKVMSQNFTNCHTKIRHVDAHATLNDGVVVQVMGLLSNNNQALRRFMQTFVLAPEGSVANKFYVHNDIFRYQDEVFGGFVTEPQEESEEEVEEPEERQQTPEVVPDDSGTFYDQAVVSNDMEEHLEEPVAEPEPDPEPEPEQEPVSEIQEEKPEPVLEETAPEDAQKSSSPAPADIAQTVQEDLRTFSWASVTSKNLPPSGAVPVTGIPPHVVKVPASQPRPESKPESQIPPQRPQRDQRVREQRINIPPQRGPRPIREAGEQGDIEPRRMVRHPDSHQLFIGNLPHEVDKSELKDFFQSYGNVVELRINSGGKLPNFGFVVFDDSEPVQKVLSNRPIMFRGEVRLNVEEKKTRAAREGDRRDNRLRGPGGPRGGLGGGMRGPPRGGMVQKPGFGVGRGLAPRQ
Method: RNA Bind-n-Seq
Form: RNA
Matrix: in vitro
Tested at: 200 nM
Setting: whole 134-nt RNA, ends assumed
With: 150 mM KCl
Relative to: input library
Reading: higher = stronger binding
Constant ends, left off below: GGGAGUUCUACAGUCCGACGAUC … UGGAAUUCUCGGGUGUCAAGG
Oligonucleotide	log2 enrichment
UAACUCUAGAGGAGGAUCUGAUGGAUAUGGCAGUGGACGUGGAUUUGGGGAUGGCUAUAAUGGGUAUGGAGGAGGACCUGGAGGUGGCAA	0.413
UUUGAAAAAGAAGAAAAAGAAAAAGAAGGGUAAGGCAUUAAAAAAGUCUUUAUAAAUUUUCUCCAAAAUAAAUGUUUGAUUUUAGCCCUA	-1.73
CUCAAGUCCUGUGCUACACAUCGUAUGUACCGAAUCGGGAGGGGAGGGAGGGGAAAGUAUUAUGUUACGCCGUUCGGAUCUGCACUUCCA	1.53
CCUCAGUGUCAUUUAUGAAAAGAGGGGACCAGAAGCCAAAGACUUAGUAUAUUUUCUUUUCCUCUGUCCCUUCCCCCAUAAGCCUCCAUU	-0.0622
AGGACGUGCAGAACUUCCUCUCUGACUGCACGAUUCAUGAUGGGGCCGCAGGUGUCCAUUUCAUCUACACUAGAGAGGGCAGGCAGAGUG	0.727
UCAAGUCCUGUGCUACACAUCGUAUGUACCGAAUCGGGGUUUGGUUUGGUUUGGAAAGUAUUAUGUUACGCCGUUCGGAUCUGCACUUCC	-0.0952
UCCUGUGCUACACAUCGUAUGUACCGAAUCAAAUUUAAACCCCCCCAAACCCCCCCAAAAAAGUAUUAUGUUACGCCGUUCGGAUCUGCA	0.129
UGUGCUACACAUCGUAUGUACCGAAUCGGGGAAAAAAAGGGGUUUUUGGGGUUUUUUUGGGGAAAGUAUUAUGUUACGCCGUUCGGAUCU	-0.296
UCCUGUGCUACACAUCGUAUGUACCGAAUCGGAAAAAAGGAAAAAAGGGGAAAAAAGGGGAAAGUAUUAUGUUACGCCGUUCGGAUCUGC	-0.691
GUCCUGUGCUACACAUCGUAUGUACCGAAUCGGGGCCCCCCGGCCCCCCGGCCCCCCGGAAAGUAUUAUGUUACGCCGUUCGGAUCUGCA	-0.115
CAAGUCCUGUGCUACACAUCGUAUGUACCGAAUCGGGUGGGAGGGAAAAAAAGGGAAAGUAUUAUGUUACGCCGUUCGGAUCUGCACUUC	0.229
GAGAGCGAGGUGGCUUCAAUAAGCCUGGUGGUAAGUUUUUGAGUAUUACCAUAGAUAGUGUUUAAAAAAAAAUGCAGUCAGUUUUUAGAA	-0.87
UCCUGUGCUACACAUCGUAUGUACCGAAUCGGCCCCCCGGCCCCCCGGGGCCCCCCGGGGAAAGUAUUAUGUUACGCCGUUCGGAUCUGC	-0.372
ACCAUGCAGGUGGGCAUCUUUGGGAAGUGGGGCAAGGGGGGGAUAGGGAGGGGGGUAACACUUUGGGAACAGGGGGUCCCAGGUCGUUUC	0.926

Set 4
Target: CCNF, cyclin fold, Cln2 fusion (human)
Method: yeast growth competition, sequencing
Matrix: yeast
Setting: strong parent motif
Relative to: not given
Reading: higher = stronger binding
Starting sequence: RBL2 docking peptide (human); STTRRRLFVENDS
Change	normalised enrichment score
STTRRRLFVENYS [D12Y]	9.02
STLRRRLFVENDS [T3L]	7.76
STTRRRLLVENDS [F8L]	5.26
STTRRRLPVENDS [F8P]	0.891
RTTRRRLFVENDS [S1R]	9.18
STTRRRLFVEYDS [N11Y]	8.26
STTRRRLFPENDS [V9P]	7.82
STTRRELFVENDS [R6E]	4.86
STTRRREFVENDS [L7E]	0.302
SSTRRRLFVENDS [T2S]	8.07
STTRRDLFVENDS [R6D]	0.379
STTRRRLFVRNDS [E10R]	6.81
YTTRRRLFVENDS [S1Y]	8.52
STTRRFLFVENDS [R6F]	1.63
STTRRRVFVENDS [L7V]	0.65
STTRRRIFVENDS [L7I]	4.03
STTRRRLFTENDS [V9T]	9.02
STTRRRLTVENDS [F8T]	1.17
STTRRRLFVENDG [S13G]	8.22
STTRRRLFVENDY [S13Y]	7.9
STRRRRLFVENDS [T3R]	2.34
STTRRRKFVENDS [L7K]	0.843
STTRRRRFVENDS [L7R]	1.17
STTRRRLFQENDS [V9Q]	7.9
STTRRILFVENDS [R6I]	4.98

Set 5
Target: CREB3L3, bZIP domain (human)
Method: DHFR protein complementation
Matrix: yeast
Setting: single substitutions, most at no-binding floor
Relative to: wild-type JUN-FOS pair
Reading: higher = stronger binding
Starting sequence: JUN, bZIP domain (human); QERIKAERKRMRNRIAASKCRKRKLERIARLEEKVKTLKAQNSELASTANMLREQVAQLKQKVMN; partner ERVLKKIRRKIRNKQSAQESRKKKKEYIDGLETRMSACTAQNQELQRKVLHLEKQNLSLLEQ
Change	binding fitness [natural log]
I28K	-1.31
M51C	-1.46
T48R	-1.51
K39I	-1.22
K34L	-1.25
T37C	-1.38
N42C	-1.53
E54A	-1.45
K36P	-1.5
L52R	-1.51
E54W	-1.44
K36F	-1.46
V56Q	-1.47
L31P	-1.52
